{"data": "Published values collected from several papers", "note": "Each numbered part is a random draw from the data of one study; scales do not carry over between parts."}
{"data": "Set 1", "target": "Histone acetyltransferase KAT6A, both winged helices, GST fusion (KAT6A, Homo sapiens, UniProt Q92794, residues 1-181)", "method": "protein binding microarray", "form": "double-stranded DNA, one strand shown", "medium": "in vitro", "concentration": "not given", "notes": "8-mer, flanks averaged, mean of 2 arrays, mostly near background", "reference": "not given", "reading": "higher = stronger binding", "Target sequence (chain)": "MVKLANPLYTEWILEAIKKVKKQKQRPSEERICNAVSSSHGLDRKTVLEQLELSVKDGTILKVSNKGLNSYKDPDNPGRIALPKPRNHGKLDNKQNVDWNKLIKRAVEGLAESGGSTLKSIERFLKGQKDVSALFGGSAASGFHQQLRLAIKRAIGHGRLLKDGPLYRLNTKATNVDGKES"}
{"Oligonucleotide": "CGCCTTTA", "E-score": 0.133}
{"Oligonucleotide": "TCGAAGCA", "E-score": -0.183}
{"Oligonucleotide": "GAGGGATC", "E-score": -0.0551}
{"Oligonucleotide": "GTATCAAC", "E-score": -0.123}
{"Oligonucleotide": "ATACGGAC", "E-score": 0.207}
{"Oligonucleotide": "GCGCAGGA", "E-score": 0.153}
{"Oligonucleotide": "CGTTTCTA", "E-score": 0.0837}
{"Oligonucleotide": "CGTACGAG", "E-score": 0.178}
{"Oligonucleotide": "AACAATCC", "E-score": 0.025}
{"data": "Set 2", "target": "Interferon regulatory factor 5, full length, phosphomimetic (IRF5, Homo sapiens, UniProt Q13568-2, residues 1-514, S451D/S453D/S456D/S462D)", "method": "protein-binding microarray", "form": "double-stranded DNA, one strand shown", "medium": "in vitro", "concentration": "940 nM top", "notes": "60-bp whole probe", "added": "salmon DNA 0.4 mg/ml", "reference": "random background probes", "reading": "higher = stronger binding", "shared flanks, not repeated": "GCCTAGCAC … GTCTTGATTCGCTTGACGCTGCTG"}
{"Oligonucleotide": "TATGTTCCCTATATAAGGCGGTGCTAG", "fitted relative affinity": "0.115 z-score"}
{"Oligonucleotide": "TTAGATATCAGTATCGACTAGTGCTAG", "fitted relative affinity": "2.22 z-score"}
{"Oligonucleotide": "GACGGAGTGCTTCTCCTGACGTGCTAG", "fitted relative affinity": "-0.577 z-score"}
{"Oligonucleotide": "TTAGAACTTAGTATCGATTAGTGCTAG", "fitted relative affinity": "6.08 z-score"}
{"Oligonucleotide": "CTTCCCCTCTCTTTCCAACTGTGCTAG", "fitted relative affinity": "0.767 z-score"}
{"Oligonucleotide": "TGGCCTCTAGGTTTTCTGAAGTGCTAG", "fitted relative affinity": "-0.296 z-score"}
{"Oligonucleotide": "GACGGTAGCCTTATCCTGACGTGCTAG", "fitted relative affinity": "-0.357 z-score"}
{"Oligonucleotide": "TTAGGTTTCGGGTTGCGGTTAGTGCTA", "fitted relative affinity": "10.9 z-score"}
{"Oligonucleotide": "GTGCCTTTATATACCTGAATGTGCTAG", "fitted relative affinity": "0.427 z-score"}
{"data": "Set 3", "target": "RING finger protein unkempt homolog, zinc fingers 1-6, SBP tag (UNK, Homo sapiens, UniProt Q9C0B0, residues 30-357)", "method": "RNA Bind-n-Seq", "form": "RNA", "medium": "in vitro", "concentration": "100 nM", "notes": "RNA with constant flanks, vertebrate orthologous sites, ends assumed", "reference": "input RNA pool", "reading": "higher = stronger binding", "UniProt Q9C0B0, sequence (30-357, looked up)": "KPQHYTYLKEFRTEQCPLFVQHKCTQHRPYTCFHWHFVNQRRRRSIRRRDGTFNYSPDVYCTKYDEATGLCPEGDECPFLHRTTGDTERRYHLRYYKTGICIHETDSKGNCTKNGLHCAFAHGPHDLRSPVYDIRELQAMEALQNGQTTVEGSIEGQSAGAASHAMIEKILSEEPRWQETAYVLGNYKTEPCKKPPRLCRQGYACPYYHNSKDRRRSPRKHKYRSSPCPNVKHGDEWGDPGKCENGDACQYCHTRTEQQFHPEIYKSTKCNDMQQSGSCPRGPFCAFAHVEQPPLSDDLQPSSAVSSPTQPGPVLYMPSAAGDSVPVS"}
{"Oligonucleotide": "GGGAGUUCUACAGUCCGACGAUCUGAGGGAGAGAUUUCUGUGCUUUCUCAUAUUUAAUUUGCUGUUUUUAAGAUAUUCCAACCUAGAGUUUUUGAUGGAACUGAUAUAUUGACAGUUCUCACCUAAGUCCUUUUAUAAAGAAUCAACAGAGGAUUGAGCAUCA", "bound/input enrichment": "1.23 ratio"}
{"Oligonucleotide": "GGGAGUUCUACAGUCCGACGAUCAAAGCCAUUUUUUUUCACUUUUCCUGUAAAUAAUGGAUAAUCAUUUUUUAUUUUAUCUUUAAGUGCUGUUUUAACAAUGUGGAUAGACCAUAAAUGUACUUGCUGAAUUCAUUCAUUUUUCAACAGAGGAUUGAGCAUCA", "bound/input enrichment": "0.497 ratio"}
{"Oligonucleotide": "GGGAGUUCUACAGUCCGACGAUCGGACUAAUUUGAUUCUCUGUCUCUUUUUUCCCCAUCCUAAUUUCAAGAGCCCUUUUCUUUUAGGCGUAUGUAGUAAUAGCUGAAAGAUUUAAUUUGGGCAACUUUGAUUCUUAAAAAAAGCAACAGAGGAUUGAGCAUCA", "bound/input enrichment": "0.238 ratio"}
{"Oligonucleotide": "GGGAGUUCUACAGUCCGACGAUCCAUUGUACCCUGCUGUAUAAUAAAAAAUCUUAGACAUUUAUCAACUGUUGAUACAAAUGUUAGUCCCUAACCACUUUUUAUAUAUGUUUUAAAUUUUUGAAAUUCAAGUGUACCUGCCAUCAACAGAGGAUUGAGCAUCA", "bound/input enrichment": "0.548 ratio"}
{"Oligonucleotide": "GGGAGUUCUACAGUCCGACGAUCGAAAAUGACGACCACAUAUCACCUCAGUGAGGUGAAGUCUCCUUGGCAUUUGGUUCGUUUUAACGCCAGUGAUUCCUGACAAGUCUUCAUGGGCAUUCACACUCAAAGUCAUCUUUUGAACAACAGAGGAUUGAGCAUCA", "bound/input enrichment": "0.424 ratio"}
{"Oligonucleotide": "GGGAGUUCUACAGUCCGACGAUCGGAGGUGCUGGGUGACUUUGUAUGUCCGCAUUUUCGGUGUAGAGUGUUGCAGGCCUUUCAGGUUUGAUCUCAAGCUCUGUGGAAAUCAUGCUACGUCAAAUCAUCUCUCAGGCCAAGAAGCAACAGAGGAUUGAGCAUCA", "bound/input enrichment": "0.236 ratio"}
{"Oligonucleotide": "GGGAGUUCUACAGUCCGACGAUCAAAUUUAUUUCAUGCCCUGGACUCCCUAUCGUACUGAUACUUUAAUAGAAUAUGCAUCUUUAGAAGAUUUCCAAAACAGUCGCCAAACAACAACCUAUAAACUUCCAAAUCGAGUAGAUGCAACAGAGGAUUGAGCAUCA", "bound/input enrichment": "1.55 ratio"}
{"data": "Mixed results"}
{"Substance": "PhoQ, residues 284 288 289 292 302 303 SLKLQV", "target": "PhoP, residues 12 14 15 18 19 VHSCL (Escherichia coli, UniProt P23836)", "test": "Sort-seq, measured: YFP reporter", "test system": "E. coli", "conditions": "PhoQ-PhoP variant library, added: 10 µM Mg2+", "scale": "reference: high Mg2+ state, higher = stronger signaling", "endpoint": "fold induction", "value": 6.45}
{"note": "A few entries again (set 1):"}
{"Oligonucleotide": "CGTACGAG", "E-score": 0.178}
